Experimental data from different studies.
Numbered parts are unrelated; each lists some results of a single study.

Study 1
Target: Interferon regulatory factor 5, full length, phosphomimetic (IRF5, Homo sapiens, UniProt Q13568-2, residues 1-514, S451D/S453D/S456D/S462D)
Technique: protein-binding microarray
Form: double-stranded DNA, one strand shown
Matrix: in vitro
Tested at: 940 nM top
Notes: 60-bp whole probe
With: salmon DNA 0.4 mg/ml
Relative to: random background probes
Direction: higher = stronger binding
Oligonucleotide | fitted relative affinity [z-score]
GCCTAGCACAGACCTTGCTTTATGTGTAGGTGCTAGGTCTTGATTCGCTTGACGCTGCTG | -0.107
GCCTAGCACATCTCTGTCCGTGCTCAGCTCGTGCTAGTCTTGATTCGCTTGACGCTGCTG | 0.55
GCCTAGCACTTAGCTATCGGACTGGGTTAGTGCTAGGTCTTGATTCGCTTGACGCTGCTG | 0.265

Study 2
Target: Histone acetyltransferase KAT6A, winged helix 1, GST fusion (KAT6A, Homo sapiens, UniProt Q92794, residues 1-85)
Technique: protein binding microarray
Form: double-stranded DNA, one strand shown
Matrix: in vitro
Tested at: not given
Notes: 8-mer, flanks averaged, mean of 2 arrays, mostly near background
Relative to: not given
Direction: higher = stronger binding
Target sequence (chain): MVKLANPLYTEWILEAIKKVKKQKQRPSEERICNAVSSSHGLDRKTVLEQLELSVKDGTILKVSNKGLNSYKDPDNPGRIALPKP
Oligonucleotide | E-score
CATGAGAA | -0.0868
AACGGGGG | 0.197
AAAGTTTC | -0.133

Study 3
Target: Sal-like protein 4, full length isoform B (SALL4, Homo sapiens, UniProt Q9UJQ4-2, residues 1-616)
Technique: universal PBM
Form: double-stranded DNA, one strand shown
Matrix: in vitro
Tested at: not given
Notes: 8-mer, flanks averaged, mean of replicates
Direction: higher = stronger binding
Oligonucleotide | E-score
CAGGGAGC | -0.181
AGACCAAA | 0.0611
AATTAGTA | 0.336
GCGATGGA | -0.147

Other studies, line by line
Substance | target | test | system | setting | how to read | measurement | result
PhoQ, residues 284 288 289 292 302 303 SLGVVW | PhoP, residues 12 14 15 18 19 VQGLL (Escherichia coli, UniProt P23836) | Sort-seq, refers to: YFP reporter | E. coli | PhoQ-PhoP variant library, with: 10 µM Mg2+ | relative to: high Mg2+ state, higher = stronger signaling | fold induction | 12.2
